Measurements of several laboratories.
Compare with care: the assays were run in different laboratories. ± gives the spread as reported. No end group written: not given here.

C[C@]12C=CC(=O)C=C1CC[C@@H]1[C@@H]2[C@@H](O)C[C@@]2(C)[C@H]1CC[C@]2(O)C(=O)CO
IC50 (TNF-alpha release; human, whole blood ex vivo; unbound concentration, PK/PD model, with: lipopolysaccharide): 0.017 µM

COc1cc2c(cc1OC)C(=O)C(CC1CCN(Cc3ccccc3)CC1)C2 (stereo not shown)
spontaneous alternation (Y-maze; male Swiss mice, scopolamine model; oral, 5 mg/kg, with: scopolamine 1.5 mg/kg i.p.; baseline: scopolamine alone): increased

CCCC1O[C@@H]2C[C@H]3[C@@H]4CCC5=CC(=O)C=C[C@]5(C)[C@H]4[C@@H](O)C[C@]3(C)[C@]2(C(=O)CO)O1 (stereo partly shown)
AUC(2-58 h) fold change (measured: human FGF21 protein; CD-1 mouse, plasma; subcutaneous, 0.3 mg/kg mRNA, MC3 LNP with hFGF21 mRNA, steroid/mRNA 2:3; baseline: LNP without steroid): 1.9 fold

CCC(=O)N1CCC(NC(=O)Nc2ccc(OC(F)(F)F)cc2)CC1
mechanical withdrawal threshold (von Frey; Sprague-Dawley rat, streptozotocin diabetic; intraperitoneal, 3 mg/kg, 60 min): 77.7 ± 1.1 g

Cc1ccc(S(=O)(=O)NC(=O)NN2CC3CCCC3C2)cc1 (stereo not shown)
blood glucose (mice with STZ-induced diabetes; oral, 25 mg/kg, 144 h, day 6): 200 ± 5.8 mg/dL

C[C@]12CCCN1CC1=NNC(=O)c3cc(F)cc4[nH]c2c1c34
inhibition (PARylation in tumour; mouse, MDA-MB-436 xenograft, tumour; 1.5 mg/kg, 0.5 h): 89%

O=C1N=C(NN=C2C(=O)Nc3ccccc32)SC1=C1c2ccccc2-c2nc3cc(F)ccc3nc21
blood glucose (mice with STZ-induced diabetes; oral, 25 mg/kg, 288 h, day 12): 227 ± 48.6 mg/dL

Cc1c(C)c2c(c(C)c1O)CCC(C)(C(=O)NN=C1C(=O)Nc3ccc(Cl)cc31)O2 (stereo not shown)
minimal effective dose (seizure protection; male CF-1 mice; intraperitoneal, 0.5 h, with: maximal electroshock): 30 mg/kg

Cc1noc(NS(=O)(=O)c2ccc(N=NN(O)c3ccccc3)cc2)c1C
inhibition (paw oedema; rat, carrageenan oedema; oral, 100 mg/kg, 2 h after carrageenan; baseline: vehicle): 39.7%

Cc1cc(C(=O)/C(=C\c2cccc(F)c2)c2cccc(F)c2)c(C(=O)N2CCCCC2)c(=O)[nH]1
IC50 (cell proliferation, MTT; 35404 melanoma brain metastasis, human patient-derived; 72 h, tested up to 10 µM): > 10 µM

Cc1cc(Nc2cc(CN3CCOCC3)c3nc(C)c(Cc4ccc(Cl)cc4F)n3n2)n[nH]1
platelet count (mouse, Ba/F3-JAK2 V617F tumour-bearing, peripheral blood; 80 mg/kg twice daily, 8 days): 1.04e+06 µL⁻¹

GEBGABGNKGEQGPKGEBGP
arthritis incidence (peptide, DBA/1 mouse, collagen-induced arthritis; iv, 0.3 mg single dose, day 25, established arthritis): 80%

O=C(O)Cc1ccccc1Nc1c(Cl)cccc1Cl
inhibition (paw edema; rat carrageenan paw edema; oral, 12.5 mg/kg, 2 h; baseline: vehicle): 52%

TLQPPASSRRRHFAHALPPAR
contractile activity (peptide, rat stomach fundus strips; 3 µM; baseline: TLQP-21): 91 ± 5%

C[C@H]1[C@H]2N(C(=O)CN(C)N2C(=O)NCc2ccccc2)[C@@H](Cc2ccc(OP(=O)(O)O)cc2)C(=O)N1Cc1cccc2cccnc12
patients with decreased liver stiffness (FibroScan; human, advanced primary biliary cholangitis; concentration not given, 12 weeks; baseline: baseline): 20%

Cc1ccc(-c2nn(-c3ccccc3)cc2C=NNC2=NC(=O)C(=C3c4ccccc4-c4nc5cc(F)ccc5nc43)S2)cc1
blood glucose (mice with STZ-induced diabetes; oral, 25 mg/kg, 144 h, day 6): 288 ± 77.9 mg/dL

Cc1c(C)c2c(c(C)c1O)CCC(C)(C(=O)NN=C1C(=O)Nc3ccc(F)cc31)O2 (stereo not shown)
minimal effective dose (seizure protection; male CF-1 mice; intraperitoneal, 0.5 h, with: maximal electroshock): > 300 mg/kg

FSRALRTK
inhibition of TNF-α release (ELISA or Luminex; peptide, mouse peritoneal macrophages, C57BL/6 mouse; optimal dose within 0.1 pM to 100 nM, 1 h pretreatment, 15 h stimulation, with: LPS 100 ng/mL + IFN-γ 20 ng/mL; baseline: LPS/IFN-γ stimulated control): 0%

Cc1c(C)c2c(c(C)c1OCc1ccccc1)CCC(C)(C(=O)NN=C1C(=O)N(C)c3ccccc31)O2 (stereo not shown)
minimal effective dose (seizure protection; male CF-1 mice; intraperitoneal, 4 h, with: pentylenetetrazole 60 mg/kg subcutaneous): 100 mg/kg

CC1(C)CCC(CN2CCN(c3ccc(C(=O)NS(=O)(=O)c4ccc(NCC5CCOCC5)c([N+](=O)[O-])c4)c(Oc4cnc5[nH]ccc5c4)c3)CC2)=C(c2ccc(Cl)cc2)C1
EC50 (cell kill, PI exclusion flow cytometry; CD21+ nodal neoplastic cells, human): > 5 µM

Cc1ccc(N(O)N=Nc2ccc(S(=O)(=O)Nc3onc(C)c3C)cc2)cc1
inhibition (paw oedema; rat, carrageenan oedema; oral, 100 mg/kg, 4 h after carrageenan; baseline: vehicle): 76.8%

Cc1c(C)c2c(c(C)c1O)CCC(C)(C(=O)NN=C1C(=O)Nc3ccc(Br)cc31)O2 (stereo not shown)
minimal effective dose (seizure protection; male CF-1 mice; intraperitoneal, 0.5 h, with: maximal electroshock): > 300 mg/kg

CC(C)NC(=O)[C@H]1CCC[C@H]1Nc1nc(Nc2ccc(C(=O)N(C)C3CCN(C)CC3)cc2)ncc1C(F)(F)F
effective dose (immunohistochemistry, measured: phospho-histone H3; advanced solid tumour patients, skin biopsy epidermis; day 16 of cycle 1, dosing): ≥ 58 mg

Cc1ccc2ccc3cc4ccccc4cc3c2c1
minimal protective dose (adrenal haemorrhage prevention; rat; oral, with: 7,12-DMBA 5 mg i.v.): 0.5 mg

COc1ccc2c(c1)CC[C@H](CN(C)CC(=O)O)[C@@H]2c1ccccc1
basal dopamine level (rat, prefrontal cortex microdialysate; oral gavage, 10 mg/kg/day, 2 weeks, PCP-treated rats): 0.54 ± 0.35 pg/10 µL

COc1ccc2c(c1)c(CC(=O)O)c(C)n2C(=O)c1ccc(Cl)cc1
cytokine level (multiplex bead immunoassay, measured: IL-17; CD-1 mice, serum; ip, 20 mg/kg, three-injection regimen, with: LPS 3 mg/kg): 0.8 ± 0.8 pg/mL

O=C1CSC(NN=C2c3ccccc3-c3nc4cc(F)ccc4nc32)=N1
blood glucose (mice with STZ-induced diabetes; oral, 25 mg/kg, 216 h, day 9): 281 ± 27.5 mg/dL

CC(C)C[C@H](NC(=O)[C@H](CO)NC(=O)[C@H](CCCNC(=N)N)NC(=O)[C@H](CC(=O)O)NC(=O)[C@H](CCC(=O)O)NC(=O)[C@H](C)NC(=O)[C@@H]1CCCN1C(=O)[C@H](C)NC(=O)[C@H](CCC(=O)O)NC(=O)[C@@H]1CCCN1C(=O)[C@@H]1CCCN1)C(N)=O
HVA level (HPLC-EC; rat F344, unilateral 6-OHDA lesion, contralateral striatum; intranasal, 300 µg daily, 5 weeks post lesion): 861 ± 49 ng/g

O=C1CSC(N=C2c3ccccc3-c3nc4cc(F)ccc4nc32)=N1
blood glucose (mice with STZ-induced diabetes; oral, 25 mg/kg, 288 h, day 12): 187 ± 3.4 mg/dL

COc1cc(OC)c2c(=O)cc(-c3cc(C)c(OC[C@H](O)CN4CCCCC4)c(C)c3)oc2c1
neutrophilic airway inflammation (histology; C57BL/6J mouse, poly(I:C) model; oral or intraperitoneal, 10 mg/kg): inhibited

Cy5-CVWSLQNTLFM (Cy5-labelled; sequence looked up)
GUVs with ILVs (GUV inward budding; peptide, POPC/cholesterol GUVs; 30 µM, 30 min): 16.6%

O=C(NC[C@H]1CN(c2ccc(N3CCOCC3=O)cc2)C(=O)O1)c1ccc(Cl)s1
prothrombin time AUC(0-48h) increase (human, moderate renal impairment, plasma; oral, 10 mg, with: erythromycin at steady state; baseline: same subjects, compound alone): ~79%

SIYNFEKL
IL-2+ TNF-α+ cells (flow cytometry, measured: CD44hi CD8+ T cells; peptide, OT-I CD8+ T cells, mouse; dose not given, primed 5 days, restimulated 100 ng/mL OVA257, with: no TGF-β1): 3.14%

COCCc1ccc(OCC(O)CNC(C)C)cc1 (stereo not shown)
malondialdehyde level (rats, adrenaline arrhythmia, plasma; intragastric, 2.57 g/kg daily, 14 days): 3.66 ± 0.28 nmol/L

CC1CCc2c1ccc1c2ccc2ccccc21 (stereo not shown)
minimal protective dose (adrenal haemorrhage prevention; rat; oral, with: 7,12-DMBA 5 mg i.v.): 1 mg

COc1c(C)c(C)c2c(c1C)CCC(C)(C(=O)NN=C1C(=O)Nc3cc(Cl)ccc31)O2 (stereo not shown)
minimal effective dose (seizure protection; male CF-1 mice; intraperitoneal, 4 h, with: pentylenetetrazole 60 mg/kg subcutaneous): 100 mg/kg

AQAGEDPHGYFLPGQFAFS
optimal dose (cytokine expression suppression; peptide, mouse peritoneal macrophages, C57BL/6 mice; 1 h pretreatment, with: LPS/IFN-γ 15 h): 100 pM

Cc1cc(C(=O)/C(=C/c2cc(Br)cs2)c2cc(Br)cs2)c(C(=O)N2CCCCC2)c(=O)[nH]1
IC50 (cell proliferation, MTT; 35404 melanoma brain metastasis, human patient-derived; 72 h, tested up to 10 µM): > 10 µM

Cc1c(C)c2c(c(C)c1O)CCC(C)(C(=O)NN=C1C(=O)N(C)c3cc(Cl)ccc31)O2 (stereo not shown)
minimal effective dose (seizure protection; male CF-1 mice; intraperitoneal, 4 h, with: maximal electroshock): 30 mg/kg

CS/C(S)=N/CCCC[S+](C)[O-] (racemic)
mRNA level (measured: Abcb1b; rat, mammary gland; oral gavage, 200 mg/kg, 4 days daily; baseline: vehicle): 0.579 fold

C[C@H]1C[C@H]2CSC(N)=N[C@@]2(c2nc(NC(=O)c3ccc(OC(F)F)cn3)cs2)CO1
change from baseline (measured: CSF total Aβ; healthy adults; 125 mg once daily, 14 days, day 15; baseline: placebo-adjusted baseline): -78.4%

OC[C@H]1O[C@@H](c2ccc(Cl)c(Cc3ccc(O[C@H]4CCOC4)cc3)c2)[C@H](O)[C@@H](O)[C@@H]1O
infarct volume (male Wistar rat, MCAO; oral, 2 mg/kg once daily, 7 days before, read 48 h after MCAO, with: liraglutide 1 mg/kg s.c. + metformin 200 mg/kg; baseline: brain volume): 4.91%

insulin lispro
total glucose infused (euglycemic clamp; healthy humans; subcutaneous, 10 units, 8 h): 2300 mg/kg

CCCC(CCC)C(=O)O
minimal effective dose (seizure protection; male CF-1 mice; intraperitoneal, 4 h, with: pentylenetetrazole 60 mg/kg subcutaneous): 200 mg/kg

CCN(O)N=Nc1ccc(S(=O)(=O)Nc2onc(C)c2C)cc1
inhibition (paw oedema; rat, carrageenan oedema; oral, 100 mg/kg, 4 h after carrageenan; baseline: vehicle): 77.1%

Cc1c2ccccc2cc2c1ccc1ccccc12
minimal protective dose (adrenal haemorrhage prevention; rat; oral, with: 7,12-DMBA 5 mg i.v.): 0.5 mg

COc1c(C)c(C)c2c(c1C)CCC(C)(C(=O)NN=C1C(=O)Nc3ccccc31)O2 (stereo not shown)
minimal effective dose (seizure protection; male CF-1 mice; intraperitoneal, 0.5 h, with: pentylenetetrazole 60 mg/kg subcutaneous): 100 mg/kg

NCCCC[C@@H]1NC(=O)[C@@H](Cc2c[nH]c3ccccc23)NC(=O)[C@H](c2ccccc2)NC(=O)[C@@H]2C[C@@H](OC(=O)NCCN)CN2C(=O)[C@H](Cc2ccccc2)NC(=O)[C@H](Cc2ccc(OCc3ccccc3)cc2)NC1=O
GH AUC(0-2h) change (GHRH-stimulated GH secretion; healthy human volunteers; subcutaneous, 100 µg, with: GHRH 1 µg/kg; baseline: pre-dose baseline): -46.2%

CC[C@H](C)[C@@H]1NC(=O)[C@H](CCCNC(=N)N)NC(=O)[C@H](CC(=O)O)NC(=O)[C@H](CC(C)C)NC(=O)[C@H](CCCCN)NC(=O)[C@H](CC(C)C)NC(=O)CNC(=O)[C@H](Cc2ccccc2)NC(=O)[C@@H](NC(=O)CNC(=O)[C@H](CCCCN)NC(=O)[C@H](CO)NC(=O)[C@H](CC(C)C)NC(=O)CNC(=O)[C@H](CCCCN)NC(=O)[C@H](CCCCN)NC(=O)[C@H](CC(N)=O)NC(=O)[C@H](C)NC(=O)CNC(=O)[C@H](CCCCN)NC(=O)[C@H](Cc2ccc(O)cc2)NC(=O)[C@H](CCCCN)NC(=O)[C@H](CCCNC(=N)N)NC(=O)[C@H](C)NC(=O)[C@H](CC(N)=O)NC(=O)[C@@H]2CCCN2C(=O)[C@H](Cc2c[nH]cn2)NC(=O)[C@H](CCC(=O)O)NC(=O)[C@H](CCC(N)=O)NC(=O)CNC(=O)[C@@H]2CCCN2)CSSC[C@@H](C(=O)O)NC(=O)CNC(=O)[C@H](CC(C)C)NC(=O)CNC(=O)[C@H](CO)NC(=O)[C@H](CCSC)NC(=O)[C@H](CO)NC(=O)CNC1=O
Emax (measured: collagen type X marker; human patients with achondroplasia, serum; day 10 to 183, sigmoid Emax vs AUC(0-t)): 4460 pg/mL
